Results pooled from the literature.
A part holds a random share of what one study measured. Values joined by “and” are separate records of one study, mostly repeats; a detail may differ.

Set 1
SMILES: Cn1cc(-c2cccc(CN3CCC4(CC3)COc3c4ccc4c3CN([C@H]3CCC(=O)NC3=O)C4=O)c2)cn1
Mode: degrader
Ikzf2/Crbn I391V: Ikzf2/Crbn (Mus musculus, UniProt P81183+Q8C7D2, I391V)
Sequence of UniProt P81183 (whole entry, unmodified, looked up): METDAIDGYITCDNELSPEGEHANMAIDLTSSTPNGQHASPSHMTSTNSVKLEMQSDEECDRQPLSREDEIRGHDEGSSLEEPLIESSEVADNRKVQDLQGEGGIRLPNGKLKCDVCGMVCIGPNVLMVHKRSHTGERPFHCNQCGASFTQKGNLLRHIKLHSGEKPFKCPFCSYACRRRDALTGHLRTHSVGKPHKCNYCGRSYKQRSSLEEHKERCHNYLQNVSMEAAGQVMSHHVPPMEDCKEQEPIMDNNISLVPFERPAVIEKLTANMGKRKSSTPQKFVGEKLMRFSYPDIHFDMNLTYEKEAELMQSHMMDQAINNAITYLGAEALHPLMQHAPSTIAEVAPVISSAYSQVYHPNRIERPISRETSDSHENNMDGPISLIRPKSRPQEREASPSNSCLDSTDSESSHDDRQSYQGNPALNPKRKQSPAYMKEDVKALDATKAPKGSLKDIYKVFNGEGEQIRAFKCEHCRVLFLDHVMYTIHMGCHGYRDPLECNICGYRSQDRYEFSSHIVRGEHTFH
Sequence of UniProt Q8C7D2 (whole entry, unmodified, looked up): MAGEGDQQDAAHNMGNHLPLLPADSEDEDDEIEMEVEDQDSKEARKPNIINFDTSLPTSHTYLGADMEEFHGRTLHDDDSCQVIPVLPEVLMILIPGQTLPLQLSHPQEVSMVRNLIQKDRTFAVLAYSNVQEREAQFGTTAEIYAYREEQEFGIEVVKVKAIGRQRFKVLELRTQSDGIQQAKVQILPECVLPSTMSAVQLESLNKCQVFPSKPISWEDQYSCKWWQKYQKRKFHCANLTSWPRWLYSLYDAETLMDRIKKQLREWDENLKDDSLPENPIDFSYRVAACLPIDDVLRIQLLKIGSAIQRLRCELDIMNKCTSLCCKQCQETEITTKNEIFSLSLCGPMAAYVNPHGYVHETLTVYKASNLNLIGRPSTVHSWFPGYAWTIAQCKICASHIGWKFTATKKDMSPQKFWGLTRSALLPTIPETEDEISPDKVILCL
CRBN/Zinc finger protein Helios: CRBN/Zinc finger protein Helios (Homo sapiens, UniProt Q96SW2+Q9UKS7)
Sequence of UniProt Q9UKS7 (whole entry, looked up): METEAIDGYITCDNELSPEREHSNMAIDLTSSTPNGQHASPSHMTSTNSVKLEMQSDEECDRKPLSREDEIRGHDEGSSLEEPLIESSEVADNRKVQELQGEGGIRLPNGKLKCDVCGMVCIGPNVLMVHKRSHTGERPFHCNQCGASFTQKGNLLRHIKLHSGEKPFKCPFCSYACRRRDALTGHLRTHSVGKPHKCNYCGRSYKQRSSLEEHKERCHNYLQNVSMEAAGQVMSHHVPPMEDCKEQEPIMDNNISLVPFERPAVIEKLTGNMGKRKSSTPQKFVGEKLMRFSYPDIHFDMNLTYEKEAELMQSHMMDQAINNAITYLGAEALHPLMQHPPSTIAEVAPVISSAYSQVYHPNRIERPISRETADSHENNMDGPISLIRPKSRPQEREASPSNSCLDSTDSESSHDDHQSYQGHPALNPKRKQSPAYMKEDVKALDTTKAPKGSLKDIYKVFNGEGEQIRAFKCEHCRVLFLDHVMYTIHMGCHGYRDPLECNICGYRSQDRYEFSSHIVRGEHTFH
Sequence of UniProt Q96SW2 (whole entry, looked up): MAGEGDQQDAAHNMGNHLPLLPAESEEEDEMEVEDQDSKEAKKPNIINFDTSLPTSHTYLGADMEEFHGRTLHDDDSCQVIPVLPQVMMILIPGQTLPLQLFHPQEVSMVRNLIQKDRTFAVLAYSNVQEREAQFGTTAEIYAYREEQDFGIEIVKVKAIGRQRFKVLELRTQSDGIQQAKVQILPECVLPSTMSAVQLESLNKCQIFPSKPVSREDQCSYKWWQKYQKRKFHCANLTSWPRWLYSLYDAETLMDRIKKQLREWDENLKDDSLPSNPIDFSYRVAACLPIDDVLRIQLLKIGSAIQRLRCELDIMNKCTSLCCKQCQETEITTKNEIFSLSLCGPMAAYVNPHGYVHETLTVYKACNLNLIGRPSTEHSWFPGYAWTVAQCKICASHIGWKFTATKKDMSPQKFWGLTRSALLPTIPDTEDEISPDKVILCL
target	test	system	conditions	protein remaining
Ikzf2/Crbn I391V	–	Crbn I391V mouse, spleen	10 mg/kg, 24 h	39% and 35% and 32% and 33%
Ikzf2/Crbn I391V	–	Crbn I391V mouse, thymus	30 mg/kg, 24 h	54% and 6% and 52% and 55%
Ikzf2/Crbn I391V	–	Crbn I391V mouse, thymus	10 mg/kg, 6 h	55% and 28% and 38% and 31%
CRBN/Zinc finger protein Helios	HiBiT	HEK293	0.4572 nM, 1 h	86.3% and 77.7%
CRBN/Zinc finger protein Helios	HiBiT	HEK293	1.372 nM, 3 h	45.8% and 47.4%
CRBN/Zinc finger protein Helios	HiBiT	HEK293	12.35 nM, 1 h	54.6% and 56.2%
CRBN/Zinc finger protein Helios	HiBiT	HEK293	0.1524 nM, 3 h	76.6% and 80.1%

Set 2
Structure (SMILES): NC/C(=C\F)COc1cccc(Cn2c(=S)[nH]c(=O)c3[nH]ccc32)c1
Effect on: enzyme activity
Mode: inhibitor
Technique: fluorescence
AOC3: Amine oxidase [copper-containing] 3 (AOC3, Homo sapiens, UniProt Q16853)
Sequence of UniProt Q16853 (whole entry, looked up): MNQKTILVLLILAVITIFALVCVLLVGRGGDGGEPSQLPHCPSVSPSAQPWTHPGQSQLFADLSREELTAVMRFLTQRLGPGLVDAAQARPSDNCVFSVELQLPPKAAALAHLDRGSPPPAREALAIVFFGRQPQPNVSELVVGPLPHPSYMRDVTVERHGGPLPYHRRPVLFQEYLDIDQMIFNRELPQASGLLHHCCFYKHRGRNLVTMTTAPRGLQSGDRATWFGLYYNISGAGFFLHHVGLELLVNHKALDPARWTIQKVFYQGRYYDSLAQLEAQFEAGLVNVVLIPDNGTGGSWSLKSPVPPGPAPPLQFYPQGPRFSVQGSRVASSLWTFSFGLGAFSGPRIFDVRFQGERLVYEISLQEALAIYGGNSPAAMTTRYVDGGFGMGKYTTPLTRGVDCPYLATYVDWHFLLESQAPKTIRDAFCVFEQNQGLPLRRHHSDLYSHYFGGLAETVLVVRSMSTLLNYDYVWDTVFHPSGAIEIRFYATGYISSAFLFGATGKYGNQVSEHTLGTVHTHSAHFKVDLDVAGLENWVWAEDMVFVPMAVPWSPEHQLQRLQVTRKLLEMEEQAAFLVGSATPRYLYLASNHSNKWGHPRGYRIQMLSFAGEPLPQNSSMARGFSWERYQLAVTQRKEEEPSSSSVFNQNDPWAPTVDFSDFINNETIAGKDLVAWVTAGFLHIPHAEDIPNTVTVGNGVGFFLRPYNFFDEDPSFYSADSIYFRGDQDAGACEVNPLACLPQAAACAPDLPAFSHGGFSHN
MPO: Myeloperoxidase (MPO, Homo sapiens, UniProt P05164)
Sequence of UniProt P05164 (whole entry, looked up): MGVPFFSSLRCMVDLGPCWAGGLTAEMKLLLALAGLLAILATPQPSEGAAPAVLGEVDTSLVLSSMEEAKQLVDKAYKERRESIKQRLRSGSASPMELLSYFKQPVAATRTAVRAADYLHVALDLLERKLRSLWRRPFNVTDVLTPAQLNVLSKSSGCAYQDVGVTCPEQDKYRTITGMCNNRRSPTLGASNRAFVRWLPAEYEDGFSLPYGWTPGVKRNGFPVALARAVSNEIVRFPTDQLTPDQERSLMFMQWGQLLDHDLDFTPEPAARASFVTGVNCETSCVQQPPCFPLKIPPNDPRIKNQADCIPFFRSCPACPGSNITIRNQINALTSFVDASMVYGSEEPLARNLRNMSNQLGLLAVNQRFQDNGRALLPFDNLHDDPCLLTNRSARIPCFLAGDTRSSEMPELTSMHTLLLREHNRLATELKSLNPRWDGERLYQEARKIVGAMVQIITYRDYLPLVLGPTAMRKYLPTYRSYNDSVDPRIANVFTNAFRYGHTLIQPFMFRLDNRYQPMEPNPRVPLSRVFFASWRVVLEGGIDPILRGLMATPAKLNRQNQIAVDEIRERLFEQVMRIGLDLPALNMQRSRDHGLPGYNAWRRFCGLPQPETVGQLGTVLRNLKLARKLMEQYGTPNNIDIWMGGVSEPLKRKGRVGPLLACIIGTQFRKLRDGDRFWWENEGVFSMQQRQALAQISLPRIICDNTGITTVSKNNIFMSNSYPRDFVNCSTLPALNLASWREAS
target	conditions	inhibition
AOC3	13.7 nM	55.6% and 66.9% and 70.3% and 41.3% and 60.4% and 63%
MPO	4.6 nM	30.4% and 23% and 24.6%
MPO	15 µM	99.6% and 99.7% and 100%
MPO	300 pM	-2.1% and 2.01% and 3.64%
MPO	30 µM	100% and 99.8%
AOC3	10 µM	100% and 99.2% and 101% and 99.9%
AOC3	30 µM	100% and 99.9% and 99.1% and 99.8% and 99.4%
MPO	800 pM	-0.968% and 5.13% and 5.82%

Set 3
SMILES: CN1CCC[C@H]1COc1nc2c(c(N3CCN(C(=O)C(F)(F)F)[C@@H](CC#N)C3)n1)CCN(c1cccc3cccc(Cl)c13)C2
Effect on: binding
Mode: competitor
Technique: NanoBRET
Cells: HEK293
KRAS G13D: GTPase KRas (KRAS, Homo sapiens, UniProt P01116, G13D)
KRAS G12D: GTPase KRas (KRAS, Homo sapiens, UniProt P01116, G12D)
target	conditions	normalized BRET
KRAS G13D	15.2 nM	96.4% and 101% and 86.6% and 105%
KRAS G13D	5.08 nM	87.7% and 98.8% and 98.5% and 108%
GTPase KRas (KRAS, Homo sapiens, UniProt P01116, Q61R)	1.24 µM	81% and 84.8% and 100%
KRAS G13D	1.69 nM	87.9% and 96.1% and 104% and 94.7%
KRAS G12D	3.7 µM	97.8% and 95% and 87%
KRAS G12D	1.69 nM	112% and 93.4% and 102%
GTPase KRas (KRAS, Homo sapiens, UniProt P01116, Q61L)	1.24 µM	80.5% and 89.2% and 80%
KRAS G13D	45.7 nM	87.1% and 91.1% and 104% and 101%

Single results of other studies
Compound	cell line	test	conditions	measurement	result
Cc1ccc(O)c(C)c1-c1cnc2[nH]c(-c3cnc(N4CCC(CN5CCN(c6ccc(N7CCC(=O)NC7=O)cc6F)CC5)CC4)nc3)cc2c1C#N	HCC1569	in-cell western, measured: CDK1 phospho-Thr14	12.35 nM	pCDK1 (Thr14) level	15.3% and 16.3%

Repeated from above (set 2):
target	conditions	inhibition
AOC3	10 µM	100% and 99.2% and 101% and 99.9%
AOC3	30 µM	100% and 99.9% and 99.1% and 99.8% and 99.4%
MPO	800 pM	-0.968% and 5.13% and 5.82%
